Experimental data pooled from the literature.
Lines come from different studies, so protocols differ. “And” joins repeats or separate records; there may be more than shown. ± gives the spread as reported.
ALB: Albumin (ALB, Homo sapiens, UniProt P02768)

| SMILES | tested on | test | system | conditions | scale | quantity | result |
| --- | --- | --- | --- | --- | --- | --- | --- |
| Cc1cccc(C(=O)Nc2nc3ccccc3[nH]2)c1 | Adenosine receptor A2a (ADORA2A, Homo sapiens, UniProt P29274) | binding, radioligand competition | – | 10 µM, with: [3H]ZM241385 | – | displacement | 6 ± 3% |
| CCn1c(-c2nc3cc(C(=O)N4CCC[C@@H](N)C4)cc(OC)c3n2C)cc2cccnc21 | Protein-arginine deiminase type-2 (PADI2, Homo sapiens, UniProt Q9Y2J8) | mixed inhibitor | – | with: BAEE substrate, 10 mM CaCl2 | – | Ki' | 1130 ± 150 µM |
| CCNC(=O)/C=C/c1cccc(Br)c1 | Sodium-dependent neutral amino acid transporter B(0)AT1 (SLC6A19, Homo sapiens, UniProt Q695T7) | inhibitor, FLIPR membrane potential | CHO-BC cells | 100 µM | reference: uninhibited control | normalised signal | 0.426 and 0.451 and 0.411 and 0.446 |
| N[C@@H](Cc1ccc(O)cc1)C(=O)Nc1ccc2ccccc2c1 | Puromycin-sensitive aminopeptidase (Rattus norvegicus, UniProt F1M9V7) | substrate | – | MW 100 kDa | – | kcat | 18.7 s⁻¹ |
| N[C@H](CNC(=O)c1ccc(-c2ccccc2)s1)C(=O)O | Glutamate receptor ionotropic, NMDA 1, with GluN2D (Grin1, Rattus norvegicus, UniProt P35439) | – | – | with: glutamate 300 µM | – | Hill slope | 2.45 |
| COc1cc(-c2cncc3c2CN(C)Cc2cc(N4CCNCC4)ccc2-3)cc(OC)c1OC | Wee1-like protein kinase 2 (WEE2, Homo sapiens, UniProt P0C1S8) | kinase activity | – | 1 µM, human enzyme, with: ATP 10 µM | reference: DMSO control | remaining activity | 117% |
| COc1cc(-c2[o+]c3cc(O)cc(O)c3cc2O[C@@H]2O[C@H](CO)[C@@H](O)[C@H](O)[C@H]2O)ccc1O | ALB | van't Hoff analysis | – | concentration not given | – | binding enthalpy change | -6.01 kcal/mol |
| CC[C@@H]1[C@H](F)C(=O)N[C@@H]1COc1nccc2cc(C(N)=O)c(OC)cc12 | Mitogen-activated protein kinase 7 (MAPK7, Homo sapiens, UniProt Q13164) | ATP-site probe binding, ActivX profiling, item: Erk5 | THP-1 cell lysate | 0.2 mM, Lys2 site | – | inhibition | -8.8% |
| c1ccc(-c2n[nH]cc2-c2ccnc3ccccc23)nc1 | Carbon catabolite-derepressing protein kinase (SNF1, Candida albicans, UniProt P52497) | kinase binding, competitor, MIB/MS competition, item: SNF1 | Candida albicans cell lysate | 1 µM | reference: DMSO | log2 fold change | 1.12 |
| C1CCCC1.C1CCCC1.[Cl][W][Cl] | ALB | fluorescence quenching | – | 288 K | – | Stern-Volmer quenching constant | 4040 L/mol |
| CC(=O)N[C@@H](CCCNC(=N)N)C(=O)N[C@@H](CCCNC(=N)N)C(=O)N[C@H]1CSSC[C@@H](C(=O)N[C@@H](CCCNC(=N)N)C(=O)N[C@@H](CCCNC(=N)N)C(N)=O)NC(=O)[C@H](C(C)C)NC(=O)[C@@H]2CCCN2C(=O)[C@H](CC(=O)O)NC(=O)[C@H](Cc2ccc(O)cc2)NC(=O)[C@H](CO)NC(=O)[C@H](CC2CCCC2)NC(=O)[C@H](Cc2ccc(-c3ccccc3)cc2)NC(=O)[C@H](CC(C)C)NC(=O)[C@@H]2CCCN2C1=O | GTPase KRas, GDP-bound (KRAS, Homo sapiens, UniProt P01116, G12D) | affinity selection mass spectrometry | – | mixture library 1, with: protein titration up to 5 µM | lower is stronger binding | lowest bound protein concentration | 5 µM |
| O=S(=O)(O)O | GUK1 (Homo sapiens, UniProt Q16774) | enzyme activity, NADH-coupled | – | 1 mM, with: ATP 2000 µM | – | reaction velocity | 0.133 µM/s and 0.134 µM/s and 0.131 µM/s |
| C=C1C(=O)O[C@@H]2C[C@@]3(C)CCCC(=C)[C@@H]3C[C@H]12 | Retinoic acid receptor RXR-alpha (RXRA, Homo sapiens, UniProt P19793) | reporter gene, Gal4 hybrid reporter | – | 10 µM | reference: vehicle | activation | 0.74 fold |
| C[C@@H]1CC[C@H]2C(C)(C)[C@H]3C[C@@]12CC[C@@]3(C)O | uncharacterized protein (Spodoptera exigua, UniProt F1CEY0) | binding, competitor, fluorescence displacement | – | 20 µM, pH 7.4, with: 1-NPN 20 µM | reference: 1-NPN alone | relative fluorescence | 67% |
| Nc1ncnc2c1ncn2[C@@H]1O[C@H](COP(=O)(O)CP(=O)(O)OP(=O)(O)O)[C@@H](O)[C@H]1O | P2X purinoceptor 1 (P2RX1, Homo sapiens, UniProt P51575, R139A) | calcium influx | – | 31.6 nM | reference: ionomycin response | calcium influx | 2.55% and 0% and 6.81% |
| Cn1cc(-c2ccc(-c3cncc(Cl)c3N3CCC4(CCNC4=O)CC3)cc2)cn1 | COLO 205 | gene expression, microarray, item: HSPA1B mRNA | – | concentration not given, 2 h | reference: untreated cells | log2 fold change | 2.07 |

Excerpt of the above:
| SMILES | tested on | test | system | conditions | scale | quantity | result |
| --- | --- | --- | --- | --- | --- | --- | --- |
| COc1cc(-c2cncc3c2CN(C)Cc2cc(N4CCNCC4)ccc2-3)cc(OC)c1OC | Wee1-like protein kinase 2 (WEE2, Homo sapiens, UniProt P0C1S8) | kinase activity | – | 1 µM, human enzyme, with: ATP 10 µM | reference: DMSO control | remaining activity | 117% |
